Measured values pooled from the literature.
A part holds a random share of what one study measured.

Study 1
Target: Centromere-binding protein 1, full length, His-tagged (CBF1, Saccharomyces cerevisiae, UniProt P17106, residues 1-351)
UniProt P17106, sequence (whole entry, looked up): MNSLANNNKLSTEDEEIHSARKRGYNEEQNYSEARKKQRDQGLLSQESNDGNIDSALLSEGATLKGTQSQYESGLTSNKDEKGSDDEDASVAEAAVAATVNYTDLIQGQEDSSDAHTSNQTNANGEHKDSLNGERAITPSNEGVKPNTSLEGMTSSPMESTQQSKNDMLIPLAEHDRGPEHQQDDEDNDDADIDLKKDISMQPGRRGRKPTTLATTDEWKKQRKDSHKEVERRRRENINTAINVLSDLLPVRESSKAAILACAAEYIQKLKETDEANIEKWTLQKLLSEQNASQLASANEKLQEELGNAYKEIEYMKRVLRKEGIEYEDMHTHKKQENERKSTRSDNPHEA
Technique: competition protein-binding microarray
Form: double-stranded DNA, one strand shown
Sample: in vitro
Concentration: 2 µM
Setting: whole 60-bp probe, lowest competitor level
Added: Pho4 competitor, 0.05 µM
Direction: higher = stronger binding
All sequences stand within: … GTCTTGATTCGCTTGACGCTGCTG
| Oligonucleotide | fluorescence intensity [a.u.] |
| --- | --- |
| TTGAATGTAGTTGATCGCGTGTCTGTTGGCCAAATC | 97.6 |
| GATAGGTGATGTTGTCATGCCTGAGTATGTGTATGA | 91.1 |
| CACCAGCCGCCATTGAACGTGCAAACAGGCACCTGT | 64.7 |
| GTCTTGTCTCATTGACGAGTGGGTGTCCCCACTTCA | 86.9 |
| TCTTTTCAGAGGCCCCATGTGGGCCCTTTCTTCCAA | 60.1 |
| ATCTTGACATTAGATCAGCTGATAAGTTTTCAACTT | 899 |
| AAAAAGAAACTCCATCACGATGTAAGTACAAATGGT | 127 |
| TTGGGATATTAGCGTCACAATGTTTTAACTATTTGG | 83.1 |
| CTTTCCCGATCTTGGACTGTGGGTGTAGCACATTTG | 78.2 |
| ATCGTAAATAAAACACACGTGCTTTCCCTACCACTT | 1970 |
| AGCCGACGCCGTAGTCGCGTGCCGATGCCCTTAGCG | 82.4 |
| CTAACGAAGGTTTGAATCGTGGGTGACAAGCCAAGT | 73.6 |
| CGGGGTTAAGTTTGTCACATAACTTGCTTGCAGCAG | 63.7 |
| GTCTTGTCTCATTGCAAGGTGGGTGTCCCCACTTCA | 68.2 |
| TGAACGCCATTACTAATGCATTTAAAAACTGCTTTT | 86 |
| AAATTACTAAGTTGGTCAGTGGGTGACGCCGTATGA | 67.7 |
| CTTCTGTAAATTTGTCACCATACTTGACGCGCCCCG | 103 |
| CTTCTGTAAATTTGTCACACAACTTGACGCGCCCCG | 92 |
| CCGCATTCGACTCACCACGTGGAATATCCTTCTCAG | 645 |
| ATTCACCAATTCCGTCACACTCAGCTAACTTCTCCT | 71.7 |
| ACAAGGAAGGTATCCCACCTGACGAACAAAGATTGA | 176 |
| CATACCCAACCTTGTTGTGTGGGTGAAGATATTTGT | 76.6 |
| ACAGAAACGAAGTATACCGTGCGATTGATTATGGTC | 67.7 |

Study 2
Target: Interferon regulatory factor 7, full length, phosphomimetic (IRF7, Homo sapiens, UniProt Q92985, residues 1-503, S471D/S472D/S475D/S476D/S477D/S483D/S484D/S487D)
UniProt Q92985, sequence (whole entry, unmodified, looked up): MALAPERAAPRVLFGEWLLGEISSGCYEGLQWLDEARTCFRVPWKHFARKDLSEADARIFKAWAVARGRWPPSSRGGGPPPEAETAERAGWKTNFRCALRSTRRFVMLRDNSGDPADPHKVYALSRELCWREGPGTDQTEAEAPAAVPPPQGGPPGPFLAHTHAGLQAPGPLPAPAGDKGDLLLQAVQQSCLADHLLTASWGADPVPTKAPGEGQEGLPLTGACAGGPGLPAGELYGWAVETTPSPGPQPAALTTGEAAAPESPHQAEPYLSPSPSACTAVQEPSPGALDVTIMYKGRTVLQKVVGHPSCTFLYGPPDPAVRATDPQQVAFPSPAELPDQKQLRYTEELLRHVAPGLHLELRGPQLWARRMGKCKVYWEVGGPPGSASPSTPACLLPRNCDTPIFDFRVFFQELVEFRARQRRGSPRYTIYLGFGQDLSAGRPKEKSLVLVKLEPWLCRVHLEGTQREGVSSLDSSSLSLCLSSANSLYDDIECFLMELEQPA
Technique: protein-binding microarray
Form: double-stranded DNA, one strand shown
Sample: in vitro
Concentration: 2200 nM top
Setting: 60-bp whole probe
Added: salmon DNA 0.4 mg/ml
Reference: random background probes
Direction: higher = stronger binding
All sequences stand within: GCCTAGCAC … GTCTTGATTCGCTTGACGCTGCTG
| Oligonucleotide | fitted relative affinity [z-score] |
| --- | --- |
| TCAGGTTTCAGATGCGTACTGTGCTAG | 1.61 |
| TCACCTTGGGCTCTAGGACTGTGCTAG | 0.214 |
| GGCAGGCTTGCCAGTTCCCCGTGCTAG | -1.05 |
| GACGGACTTCTTATCCTGACGTGCTAG | 0.51 |
| TCACTTTTGGCTTTCCTACTGTGCTAG | 4.56 |
| CACGGTATCGGTCTCGGGACGTGCTAG | 0.158 |
| GACGATTTCAGTTCAGAGACGTGCTAG | 1.72 |
| CCATTTTGGTTTTCTCTATTGGTGCTA | 3.37 |
| GACGTTCTCAGTTTCGAGACGTGCTAG | 3.76 |
| TCAAGCTTTTCATTTTTTACTGTGCTA | 0.858 |
| TTAGGTTTCGGTTCCGGCTAGTGCTAG | 11.4 |
| TTAGGTATCGGTATCGGATAGTGCTAG | 0.687 |
| GACGGTTTCGGTCTCGTGACGTGCTAG | 6.77 |
| TCAGCTCCCTTTCTCTCACTGTGCTAG | 1.46 |
| TTAGGTGTCCTTTTCCTTTAGTGCTAG | 1.39 |
| TTAGATCTCAGACTGAATTAGTGCTAG | -0.303 |
| GACGGTCTCCTTTCCCTGACGTGCTAG | 1.43 |
| TTAGGACTGGTTTTCCTTTAGTGCTAG | 1.28 |
| TTTTCTCTGGTTCTTGCTTGGTGCTAG | 2.33 |
| TCAGTTTTCATTTTCTGACTGTGCTAG | 6.62 |

Study 3
Target: Histone acetyltransferase KAT6A, both winged helices, GST fusion (KAT6A, Homo sapiens, UniProt Q92794, residues 1-181)
Technique: protein binding microarray
Form: double-stranded DNA, one strand shown
Sample: in vitro
Concentration: not given
Setting: 8-mer, flanks averaged, mean of 2 arrays, mostly near background
Reference: not given
Direction: higher = stronger binding
Target sequence (chain): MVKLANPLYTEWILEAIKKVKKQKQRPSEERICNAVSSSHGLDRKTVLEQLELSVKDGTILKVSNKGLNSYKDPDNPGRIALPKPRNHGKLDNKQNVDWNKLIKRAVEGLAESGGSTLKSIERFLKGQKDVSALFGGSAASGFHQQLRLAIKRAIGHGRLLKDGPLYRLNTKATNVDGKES
| Oligonucleotide | E-score |
| --- | --- |
| CGCCAGAA | -0.0692 |
| CGCCGGAC | 0.285 |
| ATCTAATA | -0.0438 |
| ACGGGACT | 0.252 |
| ATCGACGA | 0.0484 |
| AATCAGGG | -0.189 |
| AACGACTG | -0.114 |
| ACCCTGCT | -0.176 |
| CCTTGGAC | -0.132 |
| GCTAGCAA | 0.00072 |
| CCCTCCTA | -0.127 |
| AGGATACT | -0.0714 |
| GACGCGAA | 0.0976 |
| ACAAACCC | -0.0367 |
| AACCTCCA | -0.199 |
| CGTCACGA | 0.104 |

Study 4
Target: Sal-like protein 4, full length isoform A (SALL4, Homo sapiens, UniProt Q9UJQ4, residues 1-1053)
UniProt Q9UJQ4, sequence (whole entry, looked up): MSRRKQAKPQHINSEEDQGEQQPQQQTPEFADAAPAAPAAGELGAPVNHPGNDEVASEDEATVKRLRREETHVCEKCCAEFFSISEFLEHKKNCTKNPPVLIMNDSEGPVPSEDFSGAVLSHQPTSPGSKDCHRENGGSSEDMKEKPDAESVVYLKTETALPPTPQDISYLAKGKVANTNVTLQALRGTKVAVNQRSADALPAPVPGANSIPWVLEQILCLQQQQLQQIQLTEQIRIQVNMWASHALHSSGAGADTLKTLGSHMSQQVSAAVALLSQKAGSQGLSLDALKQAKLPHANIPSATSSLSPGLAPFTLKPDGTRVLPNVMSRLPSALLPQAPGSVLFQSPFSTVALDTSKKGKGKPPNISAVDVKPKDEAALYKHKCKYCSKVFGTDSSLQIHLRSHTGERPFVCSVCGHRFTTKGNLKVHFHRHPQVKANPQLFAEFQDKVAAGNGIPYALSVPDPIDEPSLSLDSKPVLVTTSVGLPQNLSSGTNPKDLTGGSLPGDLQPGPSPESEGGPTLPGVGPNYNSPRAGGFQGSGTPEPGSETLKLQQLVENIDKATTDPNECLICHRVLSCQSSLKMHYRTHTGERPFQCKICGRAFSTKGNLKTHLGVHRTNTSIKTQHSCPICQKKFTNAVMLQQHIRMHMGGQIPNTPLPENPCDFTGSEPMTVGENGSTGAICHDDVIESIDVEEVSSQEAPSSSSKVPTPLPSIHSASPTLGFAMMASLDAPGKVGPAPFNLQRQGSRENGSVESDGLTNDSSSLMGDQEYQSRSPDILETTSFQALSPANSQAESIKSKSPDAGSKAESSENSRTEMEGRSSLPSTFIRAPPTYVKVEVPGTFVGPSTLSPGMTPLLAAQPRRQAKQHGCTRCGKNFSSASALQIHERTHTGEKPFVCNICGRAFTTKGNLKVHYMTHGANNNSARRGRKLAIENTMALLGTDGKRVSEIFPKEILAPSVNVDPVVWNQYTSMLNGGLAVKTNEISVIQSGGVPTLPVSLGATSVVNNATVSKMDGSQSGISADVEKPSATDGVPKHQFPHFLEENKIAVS
Technique: universal PBM
Form: double-stranded DNA, one strand shown
Sample: in vitro
Concentration: 600 nM
Setting: 8-mer, flanks averaged, mean of replicates
Direction: higher = stronger binding
| Oligonucleotide | E-score |
| --- | --- |
| AGTGTAGC | -0.0533 |
| AATATTGC | 0.435 |
| ACTGGCTG | -0.301 |
| AAGGAACA | -0.0435 |
| CAGCATCG | -0.27 |
| GGTTCCGA | -0.279 |
| CACCGGCA | -0.265 |
| ATCAGGTC | -0.109 |
| CAGGAACC | -0.216 |
| AACTTGCC | -0.0476 |
| GCGGCAAA | -0.173 |
| AGCTCTTC | -0.121 |
| CACAACAC | 0.108 |
| GTCCCGTA | -0.0841 |
| AACTACGG | -0.15 |
| GCCTTCCA | -0.0304 |
| AAGGTTGC | -0.139 |
| TCCTCCAA | -0.0216 |
| CACCACTC | -0.121 |
| CTCTTTGC | 0.0066 |
| CACCCGGC | -0.42 |
| CGAAGTTA | 0.0658 |
| ACACAAAG | 0.049 |
| CAGCGCGA | -0.232 |
| GATTCAGC | -0.126 |

Study 5
Target: Prothrombin, mature alpha-thrombin (F2, Homo sapiens, UniProt P00734)
Technique: aptamer microarray, sandwich
Form: DNA with 2'F-ANA
Sample: in vitro
Concentration: 200 nM
Setting: whole 15-mer aptamer, many near background
Added: Cy3 exosite-II aptamer, 400 nM
Direction: higher = stronger binding
Oligonucleotide: GGTTGGTGTGGTTGG
| Modification | mean fluorescence intensity |
| --- | --- |
| 2'F-ANA at 5 8 12 13 15 | 112 a.u. |
| 2'F-ANA at 1 2 3 12 13 14 15 | 95.1 a.u. |
| 2'F-ANA at 1 2 4 6 7 8 10 14 | 45.6 a.u. |
| 2'F-ANA at 3 4 10 13 14 15 | 206 a.u. |
| 2'F-ANA at 3 4 6 8 9 10 11 | 212 a.u. |
| 2'F-ANA at 2 5 7 8 13 | 61.6 a.u. |
| 2'F-ANA at 1 2 4 5 8 11 12 | 95.5 a.u. |
| 2'F-ANA at 4 7 12 13 14 | 125 a.u. |
| 2'F-ANA at 3 4 8 9 11 14 15 | 260 a.u. |
| 2'F-ANA at 4 6 7 8 10 11 12 13 | 88.5 a.u. |
| 2'F-ANA at 1 4 5 6 7 8 9 12 14 15 | 67.7 a.u. |
| 2'F-ANA at 2 3 5 8 9 | 135 a.u. |
| 2'F-ANA at 4 7 9 10 11 13 15 | 69.3 a.u. |
| 2'F-ANA at 1 7 11 15 | 176 a.u. |
| 2'F-ANA at 1 3 5 9 10 11 13 15 | 46.6 a.u. |
| 2'F-ANA at 1 2 4 5 6 10 11 14 15 | 53 a.u. |
| 2'F-ANA at 2 4 5 6 7 12 13 14 15 | 48.1 a.u. |
| 2'F-ANA at 1 2 3 7 9 11 12 14 | 103 a.u. |
| 2'F-ANA at 2 3 4 6 7 8 9 13 14 | 209 a.u. |
| 2'F-ANA at 2 3 5 6 8 9 14 15 | 52.6 a.u. |
| 2'F-ANA at 1 2 3 7 8 9 10 11 15 | 71.1 a.u. |
| 2'F-ANA at 1 2 4 5 8 9 10 14 | 69 a.u. |
| 2'F-ANA at 1 3 5 6 8 10 11 15 | 51.7 a.u. |
| 2'F-ANA at 1 2 4 8 11 14 15 | 105 a.u. |

Excerpt of the above (study 1):
| Oligonucleotide | fluorescence intensity [a.u.] |
| --- | --- |
| CACCAGCCGCCATTGAACGTGCAAACAGGCACCTGT | 64.7 |
| GTCTTGTCTCATTGACGAGTGGGTGTCCCCACTTCA | 86.9 |
| TCTTTTCAGAGGCCCCATGTGGGCCCTTTCTTCCAA | 60.1 |
| ATCTTGACATTAGATCAGCTGATAAGTTTTCAACTT | 899 |
| AAAAAGAAACTCCATCACGATGTAAGTACAAATGGT | 127 |
| TTGGGATATTAGCGTCACAATGTTTTAACTATTTGG | 83.1 |
| CTTTCCCGATCTTGGACTGTGGGTGTAGCACATTTG | 78.2 |
| ATCGTAAATAAAACACACGTGCTTTCCCTACCACTT | 1970 |
| AGCCGACGCCGTAGTCGCGTGCCGATGCCCTTAGCG | 82.4 |
| CTAACGAAGGTTTGAATCGTGGGTGACAAGCCAAGT | 73.6 |
| CGGGGTTAAGTTTGTCACATAACTTGCTTGCAGCAG | 63.7 |
| GTCTTGTCTCATTGCAAGGTGGGTGTCCCCACTTCA | 68.2 |
| TGAACGCCATTACTAATGCATTTAAAAACTGCTTTT | 86 |
| AAATTACTAAGTTGGTCAGTGGGTGACGCCGTATGA | 67.7 |
| CTTCTGTAAATTTGTCACCATACTTGACGCGCCCCG | 103 |
| CTTCTGTAAATTTGTCACACAACTTGACGCGCCCCG | 92 |
| CCGCATTCGACTCACCACGTGGAATATCCTTCTCAG | 645 |
